Measurements gathered from unrelated publications.
Parts stem from different laboratories: compare values within a part only. Positions count from the first letter of the parent shown.

Sample 1
Target: ABI1, truncated, D143A, DHFR fusion (Arabidopsis thaliana)
Technique: DHFR PCA, deep sequencing
Medium: yeast
Setting: methotrexate growth selection, single substitutions
With: (+)-ABA 4.8 µM
Relative to: wild-type fitted maximum
Direction: higher = stronger binding
Starting sequence: PYL1, truncated, DHFR fusion (Arabidopsis thaliana); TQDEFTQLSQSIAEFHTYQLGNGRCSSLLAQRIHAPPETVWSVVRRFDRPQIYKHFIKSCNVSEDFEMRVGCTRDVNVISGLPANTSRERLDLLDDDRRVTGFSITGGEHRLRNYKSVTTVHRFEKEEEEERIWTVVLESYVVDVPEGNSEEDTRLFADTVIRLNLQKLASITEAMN; partner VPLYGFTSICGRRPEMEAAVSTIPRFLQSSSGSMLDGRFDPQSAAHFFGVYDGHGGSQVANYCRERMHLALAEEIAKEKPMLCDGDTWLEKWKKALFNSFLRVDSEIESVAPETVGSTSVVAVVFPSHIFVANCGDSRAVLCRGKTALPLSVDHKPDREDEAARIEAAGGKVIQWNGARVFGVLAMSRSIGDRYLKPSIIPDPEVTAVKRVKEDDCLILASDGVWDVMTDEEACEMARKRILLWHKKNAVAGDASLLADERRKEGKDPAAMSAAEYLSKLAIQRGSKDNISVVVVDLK
| Change | relative binding score [%] |
| --- | --- |
| I79W | 60.5 |
| E89F | -2.57 |
| Y53A | -9.86 |
| E89C | 0.0357 |
| L93H | 40.7 |
| R155W | -4.23 |
| V118L | 18.4 |
| I33M | 45.5 |
| F103K | -11.3 |
| D144F | 5.62 |

Sample 2
Target: Interferon regulatory factor 7, full length, phosphomimetic (IRF7, Homo sapiens, UniProt Q92985, residues 1-503, S471D/S472D/S475D/S476D/S477D/S483D/S484D/S487D)
Technique: protein-binding microarray
Molecule type: double-stranded DNA, one strand shown
Medium: in vitro
Tested at: 2200 nM top
Setting: 60-bp whole probe
With: salmon DNA 0.4 mg/ml
Relative to: random background probes
Direction: higher = stronger binding
Constant ends, left off below: GCCTAGCAC … GTCTTGATTCGCTTGACGCTGCTG
Construct (chain): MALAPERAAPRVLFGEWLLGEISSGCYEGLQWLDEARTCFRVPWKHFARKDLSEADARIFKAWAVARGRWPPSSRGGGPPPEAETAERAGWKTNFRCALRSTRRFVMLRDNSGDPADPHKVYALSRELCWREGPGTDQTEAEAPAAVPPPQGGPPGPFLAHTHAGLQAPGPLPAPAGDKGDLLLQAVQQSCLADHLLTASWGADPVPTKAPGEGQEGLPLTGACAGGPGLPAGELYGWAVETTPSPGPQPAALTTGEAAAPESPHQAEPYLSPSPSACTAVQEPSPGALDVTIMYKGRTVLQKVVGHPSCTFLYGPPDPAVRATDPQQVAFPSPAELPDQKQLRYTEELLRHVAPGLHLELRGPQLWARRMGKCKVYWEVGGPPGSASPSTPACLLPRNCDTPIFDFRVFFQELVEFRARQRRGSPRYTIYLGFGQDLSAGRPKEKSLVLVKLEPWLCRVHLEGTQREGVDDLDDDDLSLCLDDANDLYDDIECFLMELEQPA
| Sequence | fitted relative affinity [z-score] |
| --- | --- |
| TGCAACATCCCAATGGCCCTGTGCTAG | 0.451 |
| TATGGCTTCAAGTAACTACAGTGCTAG | -0.128 |
| AACGGACTGGGACTGGGGACGTGCTAG | -0.91 |
| TTAGGTTTCGACACTGGGTTGGTGCTA | 2.28 |
| TTAGAACTGGGACTGGGTTAGTGCTAG | -0.578 |
| TTAGGACGGGGGACTGGGTTAGTGCTA | 0.352 |

Sample 3
Target: CCNE2, cyclin fold, Cln2 fusion (human)
Technique: yeast growth competition, sequencing
Medium: yeast
Setting: strong parent motif
Relative to: not given
Direction: higher = stronger binding
Starting sequence: SCAPER docking peptide (human); SNARRSLNFGGST; partner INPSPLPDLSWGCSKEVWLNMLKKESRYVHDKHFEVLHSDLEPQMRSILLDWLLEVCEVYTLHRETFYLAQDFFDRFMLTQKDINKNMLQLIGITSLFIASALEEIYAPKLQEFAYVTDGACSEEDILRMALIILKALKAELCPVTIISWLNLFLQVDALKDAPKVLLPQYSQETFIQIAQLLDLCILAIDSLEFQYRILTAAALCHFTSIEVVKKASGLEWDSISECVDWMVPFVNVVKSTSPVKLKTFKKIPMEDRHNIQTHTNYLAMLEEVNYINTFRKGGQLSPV
| Change | normalised enrichment score |
| --- | --- |
| SNAWRSLNFGGST [R4W] | 0.373 |
| SHARRSLNFGGST [N2H] | 1.63 |
| SNARRSLNFGGWT [S12W] | 1.04 |
| SNARRSANFGGST [L7A] | 0.543 |
| SNARRSLNFKGST [G10K] | -0.251 |
| QNARRSLNFGGST [S1Q] | 0.855 |

Other studies, line by line
| Molecule | target | assay | system | conditions | how to read | measurement | result |
| --- | --- | --- | --- | --- | --- | --- | --- |
| PhoQ, residues 284 288 289 292 302 303 SIHMAM | PhoP, residues 12 14 15 18 19 LYFRQ (Escherichia coli, UniProt P23836) | Sort-seq, measured: YFP reporter | E. coli | PhoQ-PhoP variant library, with: 10 µM Mg2+ | relative to: high Mg2+ state, higher = stronger signaling | fold induction | 16.2 |

Repeated from above (sample 3):
| Change | normalised enrichment score |
| --- | --- |
| SHARRSLNFGGST [N2H] | 1.63 |
| SNARRSLNFKGST [G10K] | -0.251 |
| SNAWRSLNFGGST [R4W] | 0.373 |
